Measured values of several laboratories.
± marks the error that the study gave.

test system	setting	tissue uptake [%ID/g]	SMILES
C57 mouse, female, B16/F1 melanoma, spleen	intravenous, 0.037 MBq, 2 h	0.94 ± 0.31	CC(C)[C@H](NC(=O)[C@@H]1CCCN1C(=O)[C@H](CCCNC(=N)N)NC(=O)[C@H](CS)NC(=O)[C@H](Cc1c[nH]c2ccccc12)NC(=O)[C@H](CCCNC(=N)N)NC(=O)[C@@H](Cc1ccccc1)NC(=O)[C@H](Cc1c[nH]cn1)NC(=O)[C@H](CCC(=O)O)NC(=O)[C@H](CS)NC(=O)[C@H](CS)NC(=O)CNC(=O)[C@@H]1CC(=O)N[C@@H](CCCNC(=N)N)C(=O)NCC(=O)N[C@@H](CC(=O)O)C(=O)N[C@H](Cc2ccc(O)cc2)C(=O)N1)C(N)=O [technetium-99m labelled]
female C57 mouse, B16/F1 melanoma, stomach	intravenous, 0.037 MBq, 2 h	0.76 ± 0.27	CCCC[C@H](NC(=O)CNC(=O)CNC(=O)CN1CCN(CC(=O)O)CCN(CC(=O)O)CC1)C(=O)N[C@H]1CC(=O)NCCCC[C@@H](C(N)=O)NC(=O)[C@H](Cc2c[nH]c3ccccc23)NC(=O)[C@H](CCCNC(=N)N)NC(=O)[C@@H](Cc2ccccc2)NC(=O)[C@H](Cc2c[nH]cn2)NC1=O [copper-64 labelled]
male Sprague-Dawley rat, liver	intravenous, 120 min	3.35 ± 0.772	O=C(O)C1CN(Cc2ccc(-c3noc(-c4ccc(OCC[18F])c(C(F)(F)F)c4)n3)cc2)C1
rat, kidney	60 min	3.24 ± 0.43	CCN(CC)c1ccc2c(-c3ccccc3C(=O)OCCOCCOCC[18F])c3ccc(=[N+](CC)CC)cc-3oc2c1
female C57 mouse, B16/F1 melanoma, liver	intravenous, 0.037 MBq, 0.5 h	11.6 ± 1.77	CCCC[C@H](NC(=O)CNC(=O)CNC(=O)CN1CCN(CC(=O)O)CCN(CC(=O)O)CCN(CC(=O)O)CC1)C(=O)N[C@H]1CC(=O)NCCCC[C@@H](C(N)=O)NC(=O)[C@H](Cc2c[nH]c3ccccc23)NC(=O)[C@H](CCCNC(=N)N)NC(=O)[C@@H](Cc2ccccc2)NC(=O)[C@H](Cc2c[nH]cn2)NC1=O [copper-64 labelled]
C57 mouse, female, B16/F1 melanoma, tumor	intravenous, 0.037 MBq, 2 h	16.1 ± 3.09	CC(C)[C@H](NC(=O)[C@@H]1CCCN1C(=O)[C@H](CCCNC(=N)N)NC(=O)[C@H](CS)NC(=O)[C@H](Cc1c[nH]c2ccccc12)NC(=O)[C@H](CCCNC(=N)N)NC(=O)[C@@H](Cc1ccccc1)NC(=O)[C@H](Cc1c[nH]cn1)NC(=O)[C@H](CCC(=O)O)NC(=O)[C@H](CS)NC(=O)[C@H](CS)NC(=O)[C@@H]1CC(=O)N[C@@H](CCCNC(=N)N)C(=O)NCC(=O)N[C@@H](CC(=O)O)C(=O)N[C@H](Cc2ccc(O)cc2)C(=O)N1)C(N)=O [technetium-99m labelled]
C57 mice with B16/F1 melanoma, spleen	intravenous, 0.037 MBq, 4 h	0.06 ± 0.04	CCCC[C@@H]1NC(=O)[C@@H](NC(=O)[C@H](CCC(=O)O)NC(=O)CNC(=O)CN2CCN(CC(=O)O)CCN(CC(=O)O)CCN(CC(=O)O)CC2)CCCCNC(=O)C[C@@H](C(N)=O)NC(=O)[C@H](C(C)C)NC(=O)[C@@H]2CCCN2C(=O)[C@H](CCCNC(=N)N)NC(=O)CNC(=O)[C@H](Cc2c[nH]c3ccccc23)NC(=O)[C@H](CCCNC(=N)N)NC(=O)[C@@H](Cc2ccccc2)NC(=O)[C@H](Cc2c[nH]cn2)NC(=O)[C@H](CCC(=O)O)NC1=O [gallium-67 labelled]
female CB-17 SCID mouse, Daudi xenograft, adrenals	intravenous, 6 h, CXCR4 blocking, added: AMD3100 2 mg/kg coinjected	0.51 ± 0.01	CN1C(=O)[C@@H](Cc2ccc(O)c(I)c2)NC(=O)CNC(=O)[C@H](Cc2ccc3ccccc3c2)NC(=O)[C@H](CCCNC(=N)N)NC(=O)[C@H]1CCCNC(=O)c1ccc(CNC(=O)CN2CCN(CC(=O)O)CCN(CC(=O)O)CCN(CC(=O)O)CC2)cc1 [lutetium-177 labelled]
female C57 mice, B16/F1 melanoma, blood	intravenous, 0.037 MBq, 0.5 h	3.33 ± 1.08	CCCC[C@H](NC(=O)CNC(=O)CNC(=O)CN1CCN(CC(=O)O)CCN(CC(=O)O)CCN(CC(=O)O)CC1)C(=O)N[C@H]1CC(=O)NCCCC[C@@H](C(N)=O)NC(=O)[C@H](Cc2c[nH]c3ccccc23)NC(=O)[C@H](CCCNC(=N)N)NC(=O)[C@@H](Cc2ccccc2)NC(=O)[C@H](Cc2c[nH]cn2)NC1=O [gallium-67 labelled]
athymic nude mice SW1222 xenograft, liver	12 h post injection, 24 h accumulation interval, added: huA33-TCO pretargeting	1.33 ± 0.53	NC12CNCCNCC(NCc3ccc(CNC(=O)CCCC(=O)NCc4ccc(-c5nncnn5)cc4)cc3)(CNCCNC1)CNCCNC2.[64Cu+2]

Excerpt of the above:
test system	setting	tissue uptake [%ID/g]	SMILES
male Sprague-Dawley rat, liver	intravenous, 120 min	3.35 ± 0.772	O=C(O)C1CN(Cc2ccc(-c3noc(-c4ccc(OCC[18F])c(C(F)(F)F)c4)n3)cc2)C1
